Measurements gathered from unrelated publications.
Every numbered part comes from another study and shows a few of its results, in no order. Changes are numbered by the printed parent chain.

Sample 1 — technique: universal PBM; molecule type: double-stranded DNA, one strand shown; medium: in vitro; concentration: 600 nM; direction: higher = stronger binding
Target: Sal-like protein 4, full length isoform A (SALL4, Homo sapiens, UniProt Q9UJQ4, residues 1-1053)
UniProt Q9UJQ4, sequence (whole entry, looked up): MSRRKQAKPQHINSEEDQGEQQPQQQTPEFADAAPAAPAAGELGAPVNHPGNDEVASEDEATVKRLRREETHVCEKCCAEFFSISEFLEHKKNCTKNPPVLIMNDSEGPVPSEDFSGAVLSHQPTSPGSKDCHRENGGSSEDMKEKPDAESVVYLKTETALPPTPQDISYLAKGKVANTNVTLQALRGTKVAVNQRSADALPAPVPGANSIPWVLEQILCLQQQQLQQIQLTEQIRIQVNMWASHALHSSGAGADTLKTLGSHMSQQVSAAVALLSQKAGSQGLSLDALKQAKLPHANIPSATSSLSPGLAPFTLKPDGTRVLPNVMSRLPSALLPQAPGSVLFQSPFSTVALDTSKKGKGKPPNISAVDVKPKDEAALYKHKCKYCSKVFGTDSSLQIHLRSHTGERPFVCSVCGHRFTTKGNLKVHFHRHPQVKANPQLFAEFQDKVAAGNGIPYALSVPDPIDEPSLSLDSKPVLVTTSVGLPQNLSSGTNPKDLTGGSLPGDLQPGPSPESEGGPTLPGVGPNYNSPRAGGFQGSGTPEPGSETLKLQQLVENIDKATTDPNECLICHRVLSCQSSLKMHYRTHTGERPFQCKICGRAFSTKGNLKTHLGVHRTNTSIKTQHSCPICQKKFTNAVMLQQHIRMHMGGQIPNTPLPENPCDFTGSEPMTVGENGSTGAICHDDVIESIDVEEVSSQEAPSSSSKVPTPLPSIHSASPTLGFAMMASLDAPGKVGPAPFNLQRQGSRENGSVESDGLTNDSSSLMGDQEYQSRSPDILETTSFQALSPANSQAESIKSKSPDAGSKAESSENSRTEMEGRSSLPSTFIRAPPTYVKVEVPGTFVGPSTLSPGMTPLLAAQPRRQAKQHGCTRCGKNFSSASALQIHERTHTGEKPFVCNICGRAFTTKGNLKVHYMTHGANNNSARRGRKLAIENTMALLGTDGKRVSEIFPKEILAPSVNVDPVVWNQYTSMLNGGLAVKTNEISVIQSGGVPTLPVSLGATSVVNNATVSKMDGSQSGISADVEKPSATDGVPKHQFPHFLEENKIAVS
Notes: 8-mer, flanks averaged, mean of replicates
Strand	E-score
AGTTCACG	-0.0316
AACATCCC	-0.151
AGGTATTG	0.162
TTATGAAA	0.447
GAGCCTCA	-0.196
TAAGAGAA	0.187
AGTTCCCC	-0.218
GATCAACC	-0.19
CTCTGCCC	-0.123
ATACGCTC	0.141
CGTTGCCA	0.021
GTCCTTAA	0.174
ATCTAGTG	0.13
GACAACTC	-0.0185
TACTAAGA	0.127
AAGTCTTA	0.116
AGGGCGAT	-0.142
ATCGGAAA	0.231
TGATGAAA	0.141
CCTCAGGC	-0.289
ATATTGCA	0.357
ATCTCTTA	0.178
ACCAACAC	0.0147
ACCGCGGC	-0.314
CGCTATCA	0.0676

Sample 2 — technique: RNA Bind-n-Seq; molecule type: RNA; medium: in vitro; concentration: 365 nM; reference: no-protein control; direction: higher = stronger binding
Target: RNA binding protein fox-1 homolog 2, RRM domain, GST-SBP tag (RBFOX2, Homo sapiens, UniProt O43251-10, residues 100-194)
Notes: natural RNA segment, single round, ends assumed
Constant ends, left off below: GGGAGUUCUACAGUCCGACGAUC … UGGAAUUCUCGGGUGCCAA
Construct (chain): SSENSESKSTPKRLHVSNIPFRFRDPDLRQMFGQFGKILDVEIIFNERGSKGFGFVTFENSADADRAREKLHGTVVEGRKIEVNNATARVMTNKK
Strand	RBNS enrichment (R)
UGGAUCUGGGCGAAGUGUCACUUUUUAGUGCCUAAAGUCCUAUUGUUUCUCUGUGCCCUAAGAGCACAUUGUUUAUUAGCCAGGGUGGAGCGUUUUCGACCUUAUUAAAC	0.271
UCCAGUUCUUGAUAGUUGGGGGCAGAGCCCCCACACUCCCUUAUACUUCCUGACUGUGCCAGGGCUUGGGUUCCCCACCACCUCCUCAAUGGAGCAAAGACUCCUGCUAG	0.515
UUUCUCAUCAAUUCUCUAUCAUGUUGAAGUCAAAUUUGGAUUUUCCACCAAAUUCUGAAUUUGUAGACAUACUUGUACGCUCACUUGCCCCAGAUGCCUCCUCUGUCCUC	0.483
UUUGAGUUUUGCUCUUGUCGCCCAGGCUGGAGUGCAAUGGCGUGAUCUCAGCUCACUGGCAACAUCUGCCUCCCGGGUUCAAAUGAUUCUCCUGCCUCAGUCUCCUGAGU	0.251
UCUAGCUUUCUCACAGAAUGAGGACACUGGACUAAAUGAUUGCCCAGUUUCCAGCUAGUCCUAGAGUUCUAUAUUUCUACAUAGUUGAAUUAUUUUAUCAUGCGGUUGCU	0.825
GCCCCAGCAGGGCACCGUGUGUGUGAGUGUGGUUUGGUGCUGUUUUGGAGUGUGCCUGCCCCCCAGCCUGGAACCCUCUGAUCAACUUGCUGGGACCUAUAACGUCUUAG	0.735
UAUAAAUCCCACCCCCAGAGUGGGGAGGGUCAGGUGCCAGACCUGGACUAAACUGCACCAAGGAAACACCCAGCAGGGUCUCCUGUGAGCCGGGGACCAUGCAGCCCGAA	0.739
UUUUUCAACUUUGUUUCCUGUUUAACUACAGAUGACUUCUGUUGUAGACUCACAAGUUUAACUGUUGUAUUAUAACAGUAUUACAUGUCAACAGUGUGGUUAUGACCUUU	0.27

Sample 3 — technique: RNA Bind-n-Seq; molecule type: RNA; medium: in vitro; concentration: not given; reference: input RNA pool; direction: higher = stronger binding
Target: RING finger protein unkempt homolog, zinc fingers 1-6, GST-SBP tag (UNK, Homo sapiens, UniProt Q9C0B0, residues 30-357)
Notes: RNA with constant flanks, human and mouse sites, ends assumed
Constant ends, left off below: GGGAGUUCUACAGUCCGACGAUC … CAACAGAGGAUUGAGCAUCA
Construct (chain): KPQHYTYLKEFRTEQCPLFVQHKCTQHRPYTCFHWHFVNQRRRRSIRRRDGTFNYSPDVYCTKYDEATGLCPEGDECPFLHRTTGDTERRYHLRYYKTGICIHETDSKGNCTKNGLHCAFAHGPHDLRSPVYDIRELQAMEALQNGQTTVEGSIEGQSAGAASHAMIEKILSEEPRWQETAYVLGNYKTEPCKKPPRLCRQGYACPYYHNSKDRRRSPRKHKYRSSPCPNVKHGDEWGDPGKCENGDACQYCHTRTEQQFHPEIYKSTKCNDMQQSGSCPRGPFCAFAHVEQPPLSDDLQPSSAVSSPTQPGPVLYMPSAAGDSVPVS
Strand	bound/input enrichment
UAUUCUUCUGGGAGCAGAAAAGGGUUUUUGUCAGGCUUGCUAGAUAACAUCAAACAAGAAUUAGCCAAAAACAAAGAGAUGAAAGAAAGUAUAAAAAAGUUCCGAGAUGAGGCCAAGAAG	0.815 ratio
CUCUCUUCCCCCCUUUUUGAGUUGUUGGGCAGUUCUUAUUUCUUGCUUGCUUUUCGGUUUCUUGCUGUUGUUGGGUGUUUUUUUUGUUUGUUUGUUUGUUUGUUUGUUCUCGCUUUUUUU	1.48 ratio
UAUUUAAGCAAGCAAGAAUUCUCCAGUGAUGAAGAAAUAAAGAAACAGCAGUCCCCAAAGGAUAAACUAAAUAAUAAAUUAAAAGAGAAUGAGAAUAUGAUGGAAGGUAACUUACCGAAG	3.06 ratio
CAAGCAGCAAAAGAAAAGUCUAAUGCCAAGGCAAAUAGCCACUAUUUGUAUAGACACAAAUAUGAAAACUAUAGGAUGAUCAAAAAAUCAGGUGAAUCAUAUCCUGUGCAUUUCAAAAAA	0.714 ratio
GCGGGUGUACGGGGUUAUCUUGACAAACUGGAGCCCAGCAAGAUCACAAAGUUUGAGAAUGCUUUCUUGUCUCACGUUAUCAGCCAGCACCAGUCCCUCUUGGGCAAUAUCAGGUCUGAU	0.0756 ratio
ACCGAGGAGCAGAAGGGCCGAGUGGCCUUCGCUUCCAACUUCCUGGCAGGAGAUGCUUCCCUGCAGAUUGAGCCUCUGAAACCCAGUGAUGAAGGCAGAUACACCUGCAAGGUGAAGAAU	0.0914 ratio
GAAUCUUCUGACAAUGAAGGUAGGCGGACAACGAGGAGAUUGCUGUCACGCAUAGCUUCUAGCAUGUCAUCUACUUUUUUUUCACGAAGAUCUAGUCAGGAUUCCUUGAAUACAAGAUCA	0.0931 ratio
UAUCUGGCUAUUUUGGCUAUUUACAACACUAAUUUCAUUAUUUUUAUCUGUAAGCAUUAUUAAUACAUCUUUACCAAAACCUGAGCAAUACAAUAUUUUCUUUAUAUGUUAUAUGCCUUU	11.6 ratio

Sample 4 — technique: DHFR PCA, deep sequencing; medium: yeast; together with: (+)-ABA 4.8 µM; reference: wild-type fitted maximum; direction: higher = stronger binding
Target: ABI1, truncated, D143A, DHFR fusion (Arabidopsis thaliana)
Notes: methotrexate growth selection, single substitutions
Starting sequence: PYL1, truncated, DHFR fusion (Arabidopsis thaliana); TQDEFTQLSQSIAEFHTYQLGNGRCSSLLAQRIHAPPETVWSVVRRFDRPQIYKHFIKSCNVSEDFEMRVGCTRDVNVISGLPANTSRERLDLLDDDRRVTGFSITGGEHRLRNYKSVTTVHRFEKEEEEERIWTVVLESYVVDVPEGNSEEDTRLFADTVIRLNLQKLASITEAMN
Change	relative binding score
E174S	35.1%
Y53D	-9.1%
T120H	-1.71%
C72D	61.7%
V100P	-10.6%
R113D	26.8%
T39E	57.1%
E131H	84%
R111C	2.91%
L91H	-18%
T119Q	46.4%
L138A	-4.33%
R49A	71.5%
N114Q	-1.88%
V44T	-14.8%
L20C	80.6%
L112H	-13.7%
